Experimental data from different studies.
Compare with care: the assays were run in different laboratories.

CC1C(=NOCc2cn(-c3ccccc3)nn2)C(C)C(c2ccc(Br)cc2)OC1c1ccc(Br)cc1 (stereo not shown)
MIC (Aspergillus flavus; microbial growth): 6.3 µg/mL

C[N+]1=C2C(c3ccccc3)=[N+]([O-])c3ccccc3N2CCC1
MIC (Fusobacterium nucleatum; microbial growth; ATCC25586): 2 µg/mL

CC[C@H](C)[C@H](NC(=O)[C@H](CO)NC(=O)[C@H](CO)NC(=O)[C@H](Cc1ccccc1)NC(=O)CN)C(=O)N[C@@H](Cc1ccccc1)C(=O)N[C@@H](CCCNC(=N)N)C(N)=O
MIC (Escherichia coli; ATCC 8739; added: 1 mM MgCl2): > 128 µM

[O-][N+]1=C(c2ccccc2)C2=NCCCN2c2ncccc21
MIC (Fusobacterium mortiferum; microbial growth): 0.125 µg/mL

c1ccc(CCNC2CCCc3c2[nH]c2ccc(C4CCCCC4)cc32)cc1 (stereo not shown)
MIC (Staphylococcus simulans; broth microdilution; 22, cation-adjusted Mueller-Hinton broth): 2 µg/mL

CC(C)C[C@@H]1NC(=O)[C@H](C)NC(=O)[C@H](NC(=O)[C@H](C)NC(=O)[C@@H](CCCCN)NC(=O)[C@@H](CC(C)C)NC(=O)[C@@H](N)Cc2ccccc2)[C@H](C(N)=O)OC(=O)[C@H](CC(C)C)NC1=O
MIC (Bacillus subtilis Bacillus subtilis; ATCC 6051; tested as TFA salt): 2 µg/mL

CC[C@H](C)[C@H](NC(=O)[C@H](CC(C)C)NC(=O)[C@H](CCC(=O)O)NC(=O)[C@H](CO)NC(=O)[C@H](CCCNC(=N)N)NC(=O)[C@@H](N)CO)C(=O)N[C@H](C(=O)N[C@@H](CCCNC(=N)N)C(=O)N[C@@H](CCC(N)=O)C(=O)N[C@@H](CCCNC(=N)N)C(=O)N[C@@H](CC(C)C)C(=O)N[C@@H](Cc1ccccc1)C(N)=O)C(C)C
MIC (Trichophyton rubrum; broth microdilution; ATCC 28189): > 400 µg/mL

CC[C@H](C)[C@H](NC(=O)[C@@H](NC(=O)CN)C(C)C)C(=O)N[C@@H](Cc1ccccc1)C(=O)N[C@@H](CC(N)=O)C(=O)N[C@@H](C)C(=O)N[C@@H](CC(C)C)C(=O)N[C@@H](CCCCN)C(=O)NCC(=O)N[C@H](C(=O)N[C@@H](C)C(=O)N[C@@H](CCCCN)C(=O)N[C@H](C(=O)N[C@H](C(=O)N[C@@H](C)C(=O)N[C@@H](C)C(=O)N[C@@H](CCC(N)=O)C(=O)N[C@@H](CC(C)C)C(=O)N[C@@H](CC(C)C)C(=O)N[C@@H](CCCCN)C(=O)N[C@@H](CCCCN)C(=O)N[C@@H](C)C(=O)N[C@@H](CCCNC(=N)N)C(=O)N[C@H]1CSSC[C@@H](C(=O)O)NC(=O)[C@H](CO)NC(=O)[C@H](CCCCN)NC(=O)[C@H](CC(=O)O)NC(=O)[C@H](CC(C)C)NC(=O)[C@H](CCCCN)NC1=O)C(C)C)[C@@H](C)O)C(C)C
MIC (Staphylococcus aureus; NCTC 10788, Mueller-Hinton broth; added: ZnCl2 8 mM): 2 µM

N#Cc1ccc(-c2c[nH]c(CNC(=O)Nc3ncc(Sc4ccccn4)s3)n2)cc1
MIC (Bacteroides ovatus; broth microdilution; ATCC 8485; without verapamil): > 128 µM

C[N+]1=C2C(c3ccc(Cl)cc3)=[N+]([O-])c3ccccc3N2CCC1
MIC (Fusobacterium nucleatum; microbial growth; ATCC25586): 4 µg/mL

A few entries again:
N#Cc1ccc(-c2c[nH]c(CNC(=O)Nc3ncc(Sc4ccccn4)s3)n2)cc1
MIC (Bacteroides ovatus; broth microdilution; ATCC 8485; without verapamil): > 128 µM
